{"data": "Experimental data gathered from unrelated publications", "note": "Each numbered part is a random draw from the data of one study; scales do not carry over between parts. Changes are numbered by the printed parent chain."}
{"data": "Series 1", "target": "Interferon regulatory factor 7, full length, phosphomimetic (IRF7, Homo sapiens, UniProt Q92985, residues 1-503, S101K/S471D/S472D/S475D/S476D/S477D/S483D/S484D/S487D)", "method": "protein-binding microarray", "molecule type": "double-stranded DNA, one strand shown", "medium": "in vitro", "concentration": "250 nM", "setting": "60-bp whole probe", "with": "salmon DNA 0.4 mg/ml", "reference": "random background probes", "direction": "higher = stronger binding", "UniProt Q92985, sequence (whole entry, unmodified, looked up)": "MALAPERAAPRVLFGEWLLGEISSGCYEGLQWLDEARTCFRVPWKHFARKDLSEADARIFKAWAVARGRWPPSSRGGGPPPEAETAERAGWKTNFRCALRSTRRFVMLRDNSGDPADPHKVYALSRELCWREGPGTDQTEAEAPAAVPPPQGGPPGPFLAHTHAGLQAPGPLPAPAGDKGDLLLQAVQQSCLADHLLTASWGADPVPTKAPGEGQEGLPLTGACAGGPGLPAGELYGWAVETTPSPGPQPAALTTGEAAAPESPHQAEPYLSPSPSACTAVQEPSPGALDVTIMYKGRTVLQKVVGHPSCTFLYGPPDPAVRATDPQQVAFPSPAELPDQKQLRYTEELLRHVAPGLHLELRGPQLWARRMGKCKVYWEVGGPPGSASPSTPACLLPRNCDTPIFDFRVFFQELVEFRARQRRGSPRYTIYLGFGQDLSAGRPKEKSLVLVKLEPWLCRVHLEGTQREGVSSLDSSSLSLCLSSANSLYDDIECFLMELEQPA"}
{"Sequence": "GCCTAGCACGACCGACTGGGGTATCGGGACGTGCTAGTCTTGATTCGCTTGACGCTGCTG", "log fluorescence [z-score]": -0.235}
{"Sequence": "GCCTAGCACGTTGTTTTAAATTCTAATTAGTGCTAGGTCTTGATTCGCTTGACGCTGCTG", "log fluorescence [z-score]": 0.798}
{"Sequence": "GCCTAGCACTTAGATTTCGGGACTTGATTAGTGCTAGTCTTGATTCGCTTGACGCTGCTG", "log fluorescence [z-score]": 0.51}
{"Sequence": "GCCTAGCACGACTAACTGAGACTGGAGACGTGCTAGGTCTTGATTCGCTTGACGCTGCTG", "log fluorescence [z-score]": -0.0212}
{"data": "Series 2", "target": "Histone acetyltransferase KAT6A, both winged helices, GST fusion (KAT6A, Homo sapiens, UniProt Q92794, residues 1-181)", "method": "protein binding microarray", "molecule type": "double-stranded DNA, one strand shown", "medium": "in vitro", "concentration": "not given", "setting": "8-mer, flanks averaged, mean of 2 arrays, mostly near background", "reference": "not given", "direction": "higher = stronger binding", "Construct (chain)": "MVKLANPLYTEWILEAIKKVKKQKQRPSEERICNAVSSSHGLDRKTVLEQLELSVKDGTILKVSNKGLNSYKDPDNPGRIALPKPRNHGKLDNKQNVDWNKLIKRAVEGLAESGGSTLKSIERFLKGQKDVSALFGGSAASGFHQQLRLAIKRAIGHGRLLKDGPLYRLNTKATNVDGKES"}
{"Sequence": "ATGTGACC", "E-score": -0.0333}
{"Sequence": "CCCCTCCG", "E-score": -0.00836}
{"Sequence": "TAGCGGCA", "E-score": 0.306}
{"Sequence": "CCGAAATA", "E-score": 0.0395}
{"data": "Other studies, line by line", "CCNB2": "CCNB2, cyclin fold, Cln2 fusion (human)", "CCNA2": "CCNA2, cyclin fold, Cln2 fusion (human)", "P1": "CDC6 docking peptide (human); TLKGRRLVFDNQL; partner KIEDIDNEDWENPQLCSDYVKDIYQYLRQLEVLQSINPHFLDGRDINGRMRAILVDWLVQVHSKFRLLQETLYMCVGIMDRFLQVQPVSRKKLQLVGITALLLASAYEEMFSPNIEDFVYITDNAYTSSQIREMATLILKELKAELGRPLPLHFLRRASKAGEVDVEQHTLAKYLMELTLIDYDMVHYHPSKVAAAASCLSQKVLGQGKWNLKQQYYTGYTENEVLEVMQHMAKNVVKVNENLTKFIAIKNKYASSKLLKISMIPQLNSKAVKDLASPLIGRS", "P2": "CDKN1B docking peptide (human); PSACRNLFGPVDH; partner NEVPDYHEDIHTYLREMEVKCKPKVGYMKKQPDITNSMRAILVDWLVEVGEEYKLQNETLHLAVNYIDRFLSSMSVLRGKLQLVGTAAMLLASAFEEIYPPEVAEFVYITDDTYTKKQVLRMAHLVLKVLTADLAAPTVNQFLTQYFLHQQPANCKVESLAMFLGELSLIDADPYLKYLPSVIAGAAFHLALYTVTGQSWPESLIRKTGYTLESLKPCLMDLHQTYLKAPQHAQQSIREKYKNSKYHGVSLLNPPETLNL"}
{"Substance": "P1 N11P", "target": "CCNB2", "test": "yeast growth competition, sequencing", "test system": "yeast", "conditions": "weak parent motif", "scale": "reference: not given, higher = stronger binding", "endpoint": "normalised enrichment score", "result": 0.462}
{"Substance": "PhoQ, residues 284 288 289 292 302 303 SLANIV", "target": "PhoP, residues 12 14 15 18 19 GQAIL (Escherichia coli, UniProt P23836)", "test": "Sort-seq, measured: YFP reporter", "test system": "E. coli", "conditions": "PhoQ-PhoP variant library, with: 10 µM Mg2+", "scale": "reference: high Mg2+ state, higher = stronger signaling", "endpoint": "fold induction", "result": 11}
{"Substance": "P2 P10G", "target": "CCNA2", "test": "yeast growth competition, sequencing", "test system": "yeast", "conditions": "strong parent motif", "scale": "reference: not given, higher = stronger binding", "endpoint": "normalised enrichment score", "result": 4.01}
{"Substance": "P1 Q12Y", "target": "CCNB2", "test": "yeast growth competition, sequencing", "test system": "yeast", "conditions": "weak parent motif", "scale": "reference: not given, higher = stronger binding", "endpoint": "normalised enrichment score", "result": 0.752}
{"Substance": "P2 L7C", "target": "CCNA2", "test": "yeast growth competition, sequencing", "test system": "yeast", "conditions": "strong parent motif", "scale": "reference: not given, higher = stronger binding", "endpoint": "normalised enrichment score", "result": -0.757}
{"note": "For quick reference, copied from above (series 1):"}
{"Sequence": "GCCTAGCACGACTAACTGAGACTGGAGACGTGCTAGGTCTTGATTCGCTTGACGCTGCTG", "log fluorescence [z-score]": -0.0212}
